Measured values pooled from the literature.
Numbered parts are unrelated; each lists some results of a single study.

Sample 1 — method: universal PBM; form: double-stranded DNA, one strand shown; medium: in vitro; tested at: 600 nM; direction: higher = stronger binding; measurement: E-score
Target: Sal-like protein 4, full length isoform A (SALL4, Homo sapiens, UniProt Q9UJQ4, residues 1-1053)
UniProt Q9UJQ4, sequence (whole entry, looked up): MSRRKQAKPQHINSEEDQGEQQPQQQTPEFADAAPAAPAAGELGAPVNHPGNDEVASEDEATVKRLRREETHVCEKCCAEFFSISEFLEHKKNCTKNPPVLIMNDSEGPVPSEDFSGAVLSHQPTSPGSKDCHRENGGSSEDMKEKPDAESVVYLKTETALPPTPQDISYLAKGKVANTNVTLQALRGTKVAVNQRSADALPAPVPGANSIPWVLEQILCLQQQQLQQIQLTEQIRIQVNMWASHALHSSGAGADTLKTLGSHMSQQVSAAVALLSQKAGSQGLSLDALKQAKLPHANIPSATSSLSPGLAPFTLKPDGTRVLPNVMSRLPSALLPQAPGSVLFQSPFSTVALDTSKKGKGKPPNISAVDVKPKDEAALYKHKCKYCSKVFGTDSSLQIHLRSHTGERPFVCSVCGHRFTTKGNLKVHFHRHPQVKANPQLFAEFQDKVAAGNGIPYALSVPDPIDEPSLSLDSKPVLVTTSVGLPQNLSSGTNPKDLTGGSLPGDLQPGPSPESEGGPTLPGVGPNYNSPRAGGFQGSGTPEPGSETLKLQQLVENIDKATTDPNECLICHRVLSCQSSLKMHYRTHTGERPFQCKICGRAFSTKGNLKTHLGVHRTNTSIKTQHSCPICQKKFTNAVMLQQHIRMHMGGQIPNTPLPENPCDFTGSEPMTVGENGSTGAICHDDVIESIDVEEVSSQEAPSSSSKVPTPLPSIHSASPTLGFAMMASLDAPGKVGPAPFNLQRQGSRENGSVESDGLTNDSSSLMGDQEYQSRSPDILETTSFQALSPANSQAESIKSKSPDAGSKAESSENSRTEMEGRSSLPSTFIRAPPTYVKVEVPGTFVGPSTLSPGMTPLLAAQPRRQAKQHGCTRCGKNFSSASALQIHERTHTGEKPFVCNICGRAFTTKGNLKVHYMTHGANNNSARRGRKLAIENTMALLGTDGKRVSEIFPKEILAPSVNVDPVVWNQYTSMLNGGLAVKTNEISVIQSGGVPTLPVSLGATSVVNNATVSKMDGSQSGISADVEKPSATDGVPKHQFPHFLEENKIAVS
Notes: 8-mer, flanks averaged, mean of replicates
GATTGCAA: 0.0363
ATCTCTCA: 0.0286
CGGCAGCC: -0.311
GGGAACTA: -0.0781
CGCTTCGA: -0.362

Sample 2 — method: protein binding microarray; form: double-stranded DNA, one strand shown; medium: in vitro; tested at: not given; baseline: not given; direction: higher = stronger binding; measurement: E-score
Target: Histone acetyltransferase KAT6A, both winged helices, GST fusion (KAT6A, Homo sapiens, UniProt Q92794, residues 1-181)
Notes: 8-mer, flanks averaged, mean of 2 arrays, mostly near background
Residues (chain): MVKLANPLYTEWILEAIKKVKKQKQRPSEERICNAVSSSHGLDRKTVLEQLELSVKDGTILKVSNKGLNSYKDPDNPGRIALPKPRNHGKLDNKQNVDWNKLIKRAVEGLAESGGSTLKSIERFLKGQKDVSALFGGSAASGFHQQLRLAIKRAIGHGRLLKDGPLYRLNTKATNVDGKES
CATTTGGA: -0.0945
ATTAAGTA: -0.106
ACACTAGC: -0.00102
GCCCGCCA: 0.0921
TCAACTAA: -0.187
CTCCCCGA: 0.0922
AATGGCGA: -0.00587

Sample 3 — method: protein-binding microarray; form: double-stranded DNA, one strand shown; medium: in vitro; tested at: 2200 nM top; notes: 60-bp whole probe; together with: salmon DNA 0.4 mg/ml; baseline: random background probes; direction: higher = stronger binding; measurement: fitted relative affinity
Target: Interferon regulatory factor 7, full length, phosphomimetic (IRF7, Homo sapiens, UniProt Q92985, residues 1-503, S471D/S472D/S475D/S476D/S477D/S483D/S484D/S487D)
UniProt Q92985, sequence (whole entry, unmodified, looked up): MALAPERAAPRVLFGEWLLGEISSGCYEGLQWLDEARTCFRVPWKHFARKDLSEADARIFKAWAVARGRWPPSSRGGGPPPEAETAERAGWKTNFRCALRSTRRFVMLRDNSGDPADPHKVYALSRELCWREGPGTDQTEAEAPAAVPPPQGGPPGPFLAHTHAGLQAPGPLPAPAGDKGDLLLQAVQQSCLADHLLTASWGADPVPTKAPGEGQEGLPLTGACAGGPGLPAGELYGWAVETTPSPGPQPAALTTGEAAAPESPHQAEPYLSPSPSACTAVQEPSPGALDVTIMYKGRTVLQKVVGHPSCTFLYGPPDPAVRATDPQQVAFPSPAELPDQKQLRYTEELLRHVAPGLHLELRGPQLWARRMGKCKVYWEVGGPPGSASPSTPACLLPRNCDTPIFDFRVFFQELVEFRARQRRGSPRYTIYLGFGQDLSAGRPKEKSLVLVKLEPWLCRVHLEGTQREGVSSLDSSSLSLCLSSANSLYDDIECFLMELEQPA
GCCTAGCACGACGGTATAGGGTTTCGGGACGTGCTAGTCTTGATTCGCTTGACGCTGCTG: 0.706 z-score
GCCTAGCACCCCTGTTTCCATCTCTCAAAGTGCTAGGTCTTGATTCGCTTGACGCTGCTG: 4.13 z-score
GCCTAGCACTTAGGTCTCCTTATCCTCTAGTGCTAGGTCTTGATTCGCTTGACGCTGCTG: 1.09 z-score
GCCTAGCACTTAGATTCCAGTTTCGATAAGTGCTAGGTCTTGATTCGCTTGACGCTGCTG: 3.72 z-score

Mixed results
PhoQ, residues 284 288 289 292 302 303 TSTLRA
fold induction (PhoP, residues 12 14 15 18 19 AYFRS (Escherichia coli, UniProt P23836); Sort-seq, item: YFP reporter; E. coli; PhoQ-PhoP variant library, together with: 10 µM Mg2+; baseline: high Mg2+ state, higher = stronger signaling): 7.02
